Published values from different studies.
Compare with care: the assays were run in different laboratories.

The IC50 of `[Co+2].[O-]c1c(I)cc(I)c2cccnc12.[O-]c1c(I)cc(I)c2cccnc12.c1cnc2c(c1)ccc1cccnc12` is reported as 31.5 µM (BEL-7404; cell growth or viability, MTT; 48 h).
`CCOc1cncc(-c2ccc(NC(=O)C3(c4ccnc(NS(=O)(=O)C5CC5)n4)CCOCC3)nc2)n1` gave an IC50 of 1.43 µM (Skut1B; cell proliferation, CellTiter-Glo; 72 h).
For `CN1CCN(c2ccc(-c3cncc(Cl)c3N3CCC4(CCNC4=O)CC3)cc2)CC1`, the IC50 was 0.056 µM (LS174T; WNT reporter gene, inhibitor, TCF/LEF luciferase).
For `Cc1ccc2c(Br)cc(Br)c([O-])c2n1.Cc1ccc2c(Br)cc(Br)c([O-])c2n1.[Co+2].c1ccc(-c2ccccn2)nc1`, the IC50 was 9.02 µM (BEL-7404; cell growth or viability, MTT; 48 h).
For `COc1cc(-c2cc(C(C)=O)n3ccccc23)c(OC)cc1Cn1ccnc1`, the IC50 was 0.028 µM (MOLM16; cell growth or viability, ATP luminescence).
With `Clc1ccnc2c1ccc1c(Cl)ccnc12.[Co+2].[O-]c1c(Br)cc(Br)c2cccnc12.[O-]c1c(Br)cc(Br)c2cccnc12` the IC50 was 15.1 µM (BEL-7404; cell growth or viability, MTT; 48 h).
For `Cc1cc(C)cc(COc2cc3c(cc2OCc2cc(C)cc(C)c2)[C@@H]2C[C@](O)(Cc4cn(Cc5ccc(F)cc5)nn4)C[C@H](C)N2CC3)c1` (relative stereo), the IC50 was 1.92 µM (GES1; cell growth or viability, MTT; 48 h).
`Cc1ccnc(-c2cc(C)ccn2)c1` gave an IC50 of > 50 µM (BEL-7404; cell growth or viability, MTT; 48 h).
`CO[C@@H](C[C@H]1C(C)=CC[C@@H]2[C@]3(C)C[C@H](O[C@@H]4O[C@@H](C)[C@H](OC(=O)c5cccc(O)c5)[C@@H](O)[C@H]4O)[C@@H](O)C(C)(C)[C@H]3CC[C@]21C)[C@H](N)C(=O)O` gave an IC50 of > 10 µM (3T3 fibroblasts; cell viability, CCK-8; 72 h).
For `CC(C)c1ccc(N(C)c2ccc3c(c2)OCC[C@H]3CNc2cnccc2C(=O)O)cc1`, the IC50 was ≥ 10 µM (SW1990; cell growth or viability, ATP luminescence; 7 days).
With `Cn1ncc(-c2ccc3c(=O)[nH]nc(CN)c3c2)c1-c1c(F)c(Cl)cc(OC2CC2)c1C#N` the IC50 was 0.02 µM (NCI-H2052; cell viability, inhibitor, CellTiter-Glo; 120 h, baseline-subtracted).
With `C[C@@H]1CC[C@@H]([C@@](O)(COCc2ccccc2)Cn2cnc3ccccc32)[C@H](OCc2ccccc2)C1` the IC50 was 5.34 µM (A2780; cell growth or viability, MTT; 72 h).
For `CCOC(=O)CC[C@@H](C)[C@H]1CC[C@H]2[C@@H]3[C@H](O)C[C@@H]4C[C@H](O)CC[C@]4(C)[C@H]3C[C@H](O)[C@]12C`, the IC50 was 43 µM (A2780; cell growth or viability, MTT; 48 h).
For `CN1CCC(N[C@H]2CCc3[nH]c4c(C(N)=O)ccc(-c5ccccc5Cl)c4c3C2)CC1`, the IC50 was 3.1 µM (MINO; cell growth or viability).
With `CCN(C(=O)c1cc(F)ccc1Oc1nncnc1N1CCC2(C1)CN(C(CCCN(C)CCOC)C(C)C)C2)C(C)C` (centres unmarked) the IC50 was > 1 µM (OCI-AML-3 (NPM1c); cell growth, live-cell imaging, spheroid-like; concentration not given, 8 days).
The IC50 of `[BH3-][P@+]1(c2ccccc2)CC[C@@H](O)CC1` is reported as > 100 µM (HaCaT; cell growth or viability, MTT; 72 h).
With `O=C(Nc1ccc(C2CCCCC2)cc1)C1CC1` the hepatic clearance was 81 mL/min/kg (hepatocyte stability; cryopreserved mouse hepatocytes; 1 µM).
`CCn1nc(Cl)c2c1-c1cnc(N)c(c1)O[C@H](C)c1cc(F)ccc1-c1nn(C)cc1C2` gave an IC50 of 0.35 µM (Ba/F3 ETV6-TRKC; cell viability).
`C=CC(=O)N1CCCC(n2c(=O)c3ncccc3n(Cc3ccc(Oc4ccccc4)cc3)c2=O)C1` (centres unmarked) gave an IC50 of 3 µM (FEPD; cell proliferation, MTT; 72 h).
`NCc1ccc2c(c1)CN(C1CCC(=O)NC1=O)C2=O` (centres unmarked) has an IC50 of 0.207 µM (JHH7; cell growth or viability, ATP luminescence).
With `CC(C)C(=O)Cc1c(OCC(O)C(C)(C)O)ccc2ccc(=O)oc12` (centres unmarked) the IC50 was > 100 µM (MRC5; cell growth or viability, MTT; 72 h).
`O=C(c1ccc([C@H]2[C@@H](F)[C@@H](F)C[C@@H](F)[C@H]2F)cc1)N1CCC(F)CC1` gave a hepatic clearance of 7.3 mL/min/kg (liver microsome stability; dog liver microsomes; 1 µM).
With `Cn1ccnc1S/C(=C\C=C(C#N)C#N)c1ccc(Cl)cc1` the IC50 was 2.06 µM (OVCAR-8; cell growth or viability, ATP luminescence; 48 h).
With `O=C1Nc2ccccc2C1(c1c[nH]c2ccccc12)c1c[nH]c2ccccc12` the IC50 was 19.3 µM (human blood monocytes; cell viability; 24 h).
The IC50 of `NC(=O)c1ccc(-c2ccccc2Cl)c2c3c([nH]c12)CC[C@@H](N)C3` is reported as 0.0124 µM (Pfeiffer; cell growth or viability).
`CC#CC(=O)N1CCC[C@H]1c1nc(-c2ccc(C(=O)Nc3ccccn3)cc2)c2c(N)nccn12` has an IC50 of > 10 µM (TMD8 ABBV-105-resistant; cell viability, CellTiter-Glo; 4 days, 48 h drug withdrawal).
`CC(=O)[O][Pt]([NH2])([NH2])([Cl])([Cl])[O]C(=O)CCCc1ccccc1` gave an IC50 of 4.02 µM (LoVo; cell growth or viability, MTT; 72 h).
For `Cc1ccc2c(Cl)cc(Cl)c([O-])c2n1.Cc1ccc2c(Cl)cc(Cl)c([O-])c2n1.Cc1ccnc(-c2cc(C)ccn2)c1.[Co+2]`, the IC50 was 5.94 µM (BEL-7404; cell growth or viability, MTT; 48 h).
With `CNS(=O)(=O)Nc1nccc(Cc2c(C)c3ccc(Oc4ncccc4F)cc3oc2=O)c1F` the IC50 was > 1 µM (HCC1187; cell viability; 7 days).
`CCCC(CCC)C(=O)[O][Pt]([NH2])([NH2])([Cl])([Cl])[O]C(C)=O` has an IC50 of 5.42 µM (LoVo; cell growth or viability, MTT; 72 h).
`COc1ccc(COC[C@](O)(CNCc2ccc(F)cc2)[C@@H]2CC[C@@H](C)C[C@H]2OCc2ccc(OC)cc2)cc1` gave an IC50 of 1.92 µM (A2780; cell growth or viability, MTT; 72 h).
With `CN(C)C/C=C/C(=O)Nc1cc2c(Nc3ccc(F)c(Cl)c3)ncnc2cc1O[C@H]1CCOC1` the IC50 was 3.3 µM (BaF3; cell growth or viability; 72 h).
For `C[C@@H]1CC[C@@H]([C@](O)(CNCc2ccccc2F)COCc2ccccc2)[C@H](OCc2ccccc2)C1`, the IC50 was 3.02 µM (A2780; cell growth or viability, MTT; 72 h).
`Cc1ccc([N+](=O)[O-])cc1S(=O)(=O)N(C)/N=C/c1cnc2ccc(Br)cn12` has an IC50 of 0.059 µM (OVCAR-8; cell viability, MTS).
The IC50 of `O=[P@]1(c2ccccc2)CC[C@@H](O)CC1` is reported as > 100 µM (HaCaT; cell growth or viability, MTT; 72 h).

Some of these lines once more:
`CC(=O)[O][Pt]([NH2])([NH2])([Cl])([Cl])[O]C(=O)CCCc1ccccc1` gave an IC50 of 4.02 µM (LoVo; cell growth or viability, MTT; 72 h).
For `Cc1ccc2c(Cl)cc(Cl)c([O-])c2n1.Cc1ccc2c(Cl)cc(Cl)c([O-])c2n1.Cc1ccnc(-c2cc(C)ccn2)c1.[Co+2]`, the IC50 was 5.94 µM (BEL-7404; cell growth or viability, MTT; 48 h).
With `CNS(=O)(=O)Nc1nccc(Cc2c(C)c3ccc(Oc4ncccc4F)cc3oc2=O)c1F` the IC50 was > 1 µM (HCC1187; cell viability; 7 days).
